Measured values of several laboratories.
Compare with care: the assays were run in different laboratories. “And” joins repeats or separate records; there may be more than shown. ± gives the spread as reported.
Organism: Salmonella typhimurium

CNC(=O)c1c(N(C)N=O)ncn1C
revertant colonies per plate (mutagenicity, Ames plate incorporation; TA100; 500 µg/plate, without S9, methanol): 116 ± 16

OC(CCN1CC=C(c2ccc(F)cc2)CC1)c1ccc(F)c2ccccc12 (stereo not shown)
survival (SOS/umu test; TA1535/pSK1002; 0.008 mg/mL, 4 h, with S9, lower range): 112%

Cc1cc(C(=O)NC(C)(C)COc2cccc3c2C(N)=NS(=O)(=O)N3)cc(C)n1
revertant ratio (Ames test, initial; TA100; 15.0 µg/plate, with: rat liver S9; baseline: solvent control): 1.1

O=NN1CCN(C2CCCC2)CC1
revertant colonies per plate (mutagenicity, Ames plate incorporation; TA100; 2500 µg/plate, 3 d, without S9, methanol): 155 ± 31

COc1cccc(-c2n[nH]c(SCc3ccccn3)n2)c1OC
revertant colonies per plate (Ames test, preincubation; TA1535; 0.25 mg/plate, with rat liver S9): 17

CN(C)c1ccc(N=NS(=O)(=O)[O-])cc1.[Na+]
revertant colonies (Ames test; TA97a; 10 µg/well, without S9): 960 colonies/well and 896 colonies/well and 928 colonies/well

CN(N=O)c1ccc(F)cc1
revertant colonies per plate (mutagenicity, Ames plate incorporation; TA100; 500 µg/plate, 3 d, without S9, methanol): 138 ± 4

O=[N+]([O-])c1ccc(NC2CCNCC2)c(C(F)(F)F)c1
survival (SOS/umu test; TA1535/pSK1002; 0.5 mg/mL, 4 h, with S9, full range): 83.1%

CCCCCc1cc(/C=C2\N=C(c3ccc[nH]3)C=C2Oc2ccccc2)[nH]c1C.Cl
mutagenicity (Ames test; TA98 and TA100; up to 10 µM, with and without S9): negative

O=[N+]([O-])c1ccc(N2CCN(CCC(O)c3ccc(F)cc3)CC2)c(C(F)(F)F)c1 (stereo not shown)
survival (SOS/umu test; TA1535/pSK1002; 0.25 mg/mL, 4 h, without S9, lower range): 224%

N#C[C@@]1(n2ccc(N)nc2=O)O[C@H](CO)[C@@H](O)[C@H]1O
viability (TA100; 5 µM, without S9; baseline: control): 104%

CC(=O)N1CCC(C(=O)N2CCN3C(=O)c4cc(-c5ccccc5)ccc4NC(=O)C3C2)CC1 (stereo not shown)
fold increase in revertants (TA98; 1581 µg/plate, with: rat liver S9; baseline: vehicle): 0.9

Nc1c2ccccc2nc2ccccc12
revertant ratio (Ames test, initial; TA1537; 75 µg/plate; baseline: solvent control): 57.2

O=[N+]([O-])c1ccc(N2CCC(NCCC(O)c3ccc(F)c4ccccc34)CC2)c(C(F)(F)F)c1 (stereo not shown)
survival (SOS/umu test; TA1535/pSK1002, TGA medium; 0.000488 mg/mL, 4 h, with: 10% rat liver S9): 70%

Nc1ccc2cc3ccccc3cc2c1
revertant ratio (Ames test, initial; TA1535; 1.0 µg/plate, with: rat liver S9; baseline: solvent control): 7

Fc1ccc(C2=CCNCC2)cc1
induction factor (genotoxicity, SOS/umu test; TA1535/pSK1002; 0.125 mg/mL, 4 h, with S9, full range): 0.6
